Measured values pooled from the literature.
Each numbered part is a random draw from the data of one study; scales do not carry over between parts. Positions count from the first letter of the parent shown.

Set 1
Target: Interferon regulatory factor 5, full length, phosphomimetic (IRF5, Homo sapiens, UniProt Q13568-2, residues 1-514, S451D/S453D/S456D/S462D)
Technique: protein-binding microarray
Form: double-stranded DNA, one strand shown
Medium: in vitro
Tested at: 940 nM top
Notes: 60-bp whole probe
With: salmon DNA 0.4 mg/ml
Baseline: random background probes
Reading: higher = stronger binding
Shared flanks, not repeated: GCCTAGCAC … GTCTTGATTCGCTTGACGCTGCTG
Oligonucleotide | fitted relative affinity
CTCACCTCAGCCTCCCAAGTGTGCTAG | 0.371 z-score
GACGAGCTGAGTTTCGAGACGTGCTAG | 3.98 z-score
TTAGGTATAGGGACTGGGTTAGTGCTA | 0.197 z-score
TCATTTCTCAACCTCCAACTGTGCTAG | 1.44 z-score
GACGGTCTGCTTATCCTGACGTGCTAG | -0.345 z-score
TTAGAACTGGGGTATCAATTAGTGCTA | 0.685 z-score
GACGAACTGAGTATAGAGACGTGCTAG | -0.342 z-score
TCATACATGAGTTTAGAACTGTGCTAG | -0.328 z-score
GACGGACTGTGACTGGGGACGTGCTAG | -0.579 z-score
GACGGGCTGGGTTTCGGGACGTGCTAG | 2.91 z-score
TTAGGACTGCTACTACTTTAGTGCTAG | -0.331 z-score
TTAGATCTCAGTTTCGATCAGTGCTAG | 7.53 z-score
TTAGGGATCGACACTGGGTTAGTGCTA | -0.0194 z-score
GACGATTTCAGTTCCGAGCCGTGCTAG | 0.442 z-score
TTAGCACTGGGTTTCGGTTAGTGCTAG | 6.33 z-score
GACGGTATCCTTTTCCTAACGTGCTAG | 0.56 z-score
GTCGAACTGAGTCTCGAGACGTGCTAG | 1.81 z-score
TCATTTTTTTGTATTTTACTGTGCTAG | 1.53 z-score
TTAGATTCCAGTTTCGATAAGTGCTAG | 7.57 z-score
TTAGATATCAGTATCCATTAGTGCTAG | 0.408 z-score
TCAATCGTCCCTTTGAGACTGTGCTAG | -0.105 z-score
GACGGTCTCCTTCTCATGACGTGCTAG | 0.543 z-score
TTAGGTCTCCTTTTCCTTTTGTGCTAG | 0.825 z-score
TCATTTTTTTAATTGAGACTGTGCTAG | 0.402 z-score
GACGAACTGAGGTTTCGAGACGTGCTA | 1.12 z-score

Set 2
Target: CCNB1, cyclin fold, Cln2 fusion (human)
Technique: yeast growth competition, sequencing
Medium: yeast
Notes: weak parent motif
Baseline: not given
Reading: higher = stronger binding
Starting sequence: ORC1 docking peptide (human); PRARKRLELGNLG
Variant | normalised enrichment score
PRARKRLQLGNLG [E8Q] | 0.988
CRARKRLELGNLG [P1C] | 1.37
PRACKRLELGNLG [R4C] | 0.367
ARARKRLELGNLG [P1A] | 1.03
PRARTRLELGNLG [K5T] | 0.0496
PRARKRLVLGNLG [E8V] | 0.9
PCARKRLELGNLG [R2C] | -0.00543
PRARKRLELGNRG [L12R] | 0.405
PRARKRLELGNLF [G13F] | 0.0908
PRARKRLCLGNLG [E8C] | 0.497
PLARKRLELGNLG [R2L] | -0.407
PRARKRLELGNLK [G13K] | 0.915
PRARMRLELGNLG [K5M] | 0.612
PRARKRLELMNLG [G10M] | 0.691
PRARKRLSLGNLG [E8S] | 0.681
PFARKRLELGNLG [R2F] | 0.147
PRAMKRLELGNLG [R4M] | 0.769
PRARKRQELGNLG [L7Q] | 0.438

Set 3
Target: Histone acetyltransferase KAT6A, both winged helices, GST fusion (KAT6A, Homo sapiens, UniProt Q92794, residues 1-181)
Technique: protein binding microarray
Form: double-stranded DNA, one strand shown
Medium: in vitro
Tested at: not given
Notes: 8-mer, flanks averaged, mean of 2 arrays, mostly near background
Baseline: not given
Reading: higher = stronger binding
Residues (chain): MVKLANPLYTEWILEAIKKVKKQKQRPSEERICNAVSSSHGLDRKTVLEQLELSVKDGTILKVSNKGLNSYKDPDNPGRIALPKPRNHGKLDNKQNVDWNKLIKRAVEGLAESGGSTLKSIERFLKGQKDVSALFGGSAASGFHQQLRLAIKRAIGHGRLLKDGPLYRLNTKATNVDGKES
Oligonucleotide | E-score
GGTGCGAC | 0.155
CCTCCTAC | -0.107
CTGTAATC | -0.0883
ACTGTTGG | -0.172
ATAAGGGC | -0.188
TCTATTCA | -0.142
CACGAAGC | 0.0289
GTCACATA | 0.0645
TAGTATAA | -0.0457
CCGCCGAC | 0.281
ACCAAACT | -0.167
CCTATCCG | 0.0743
CGTCAGGC | 0.00109
AGCTCAAA | -0.0322
ACTGGAGG | -0.123
CTTCTCCA | -0.1
GCTGGCAA | -0.0848
CGAAGCGA | 0.0837
AATCATCA | -0.0796
ACAGACCT | 0.0326
CAGGACCA | -0.0696
CAGATCCG | 0.139
CTATAATC | -0.193
AAATGTGA | -0.0847

Set 4
Target: RNA binding protein fox-1 homolog 2, RRM domain, GST-SBP tag (RBFOX2, Homo sapiens, UniProt O43251-10, residues 100-194)
Technique: RNA Bind-n-Seq
Form: RNA
Medium: in vitro
Tested at: 365 nM
Notes: natural RNA segment, single round, ends assumed
Baseline: no-protein control
Reading: higher = stronger binding
Shared flanks, not repeated: GGGAGUUCUACAGUCCGACGAUC … UGGAAUUCUCGGGUGCCAA
Residues (chain): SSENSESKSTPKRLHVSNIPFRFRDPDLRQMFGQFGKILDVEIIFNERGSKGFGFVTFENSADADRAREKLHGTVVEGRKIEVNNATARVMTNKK
Oligonucleotide | RBNS enrichment (R)
GAAUGACGAUUUUGAUUAGGCCACGUAGGGUGAAAACCGCAGAAAAAUGAUUGGAAAUGAACUCUUGCCCUGGAAUAACCUUGACAAUUCAAACCGCGAUGUUUACUUUU | 0.611
UUCAUUUAGUUUUCUUUUUCUUUCUCUUGACUCCUCCUUUUAGGAUGUCCAGAUGUUGUAAAAAAACAAAAACAAAAAACCCAACAGCUGCAGUUCAAUACAACUGCUCU | 0.297
AGAACGAGUAAUUCUCACCCCAAGCAACAUCUAAUAGGGACUGAGUGACCCCAGCCCAGCCUAGUGUCACUUUAGGCCUGACGUUUGAGCAACCCUCGGCUCUUGCCAAG | 0.276
UAAAAUUUUAAUCCUUACUGCAUUUCUUCUGUUCCUACAAAUGUAUUAAACAUUCAGUUUAACUGGUGUUCAUUUUCUUUUAAAGUCUAUUGAAAUAUUCAAAAGGGAAA | 0.613
UGCAUUGAUUAAUGUUCACUUAUACAUUCCUGUACAGAAAUUAUGAUUUUUGUGAUUAUAGUAAUAAAAUGAUAUUACUUGUGAAAUAUUAGUAAUAAAUUAUUUGAGUA | 0.831
UAGUCUGAUUUUUUUCCUAAUAUUCUAGCAGGCUGGGGUGGUAUAAAGCCCUCCUGACAAGCCUUUUGCCUACAGGUUUACCUGAAAAUGAGCUACAUAUGGUCGUCAUU | 0.256
CCUGUUUUAAAAACUAAAUGAAGGGAACCACAUUAGGGCCCAUGCCAGCAUCCCAGUGAAGUUCGUCCAGCUCCAGUUAGGUGGAUUCUGGAGUUCGGAGAGGGUUUAAA | 1.08
UCCAGCCUCCGACCCCUCGCCCCAUGAAGGAGCUGGCAGGUGGAAAUAAACAACAACUUUAUUAAAACACCCGAGGCAGCCUUUUGCUUCCCCCUCCUUAGCCCUGUUCC | 0.907
UGGGCCAACUAUUUAGUAAGCCCGGAUAGACUUAUUGCCAAAAACAAAAAAUAGCUUUCAAAAGAAAUUUAAGUUCUAUGAGAAAUUCCUUAGUCAUGGUGUUGCGUAAA | 0.651
CAUAUUUUAAUUGCAUAUAACUGUAUAAUAGUCCGUGUUGUUUUCUUGCAUUGACAUGUUUCCUUUUGAAAUGAGGUAAUCAAUUAGGUGGGGAAAAAAAUGUUCUCGAC | 0.513
UCUACCACAUGCAAGUCUGUGUCCACAGAGCCGUUCUUGAACUCCGUAUCAGUACAGCUUUCACCUGGGUUGUCCGUUGUAGUGUCUGGGAAGCUUGAGGGUUCCCUUCU | 0.532
UGUGAUGGUAGUGACUUUAUGAGUUGUGAAUGGUCCUUGGCAGUCUGCCUGCUUUCUCAGAGUCUGGGCAGGCCGAUGGGAACUGUCAUCUCCUUAGGGAUGUGUGUGUU | 1.66

Some of these lines once more (set 4):
Oligonucleotide | RBNS enrichment (R)
UCCAGCCUCCGACCCCUCGCCCCAUGAAGGAGCUGGCAGGUGGAAAUAAACAACAACUUUAUUAAAACACCCGAGGCAGCCUUUUGCUUCCCCCUCCUUAGCCCUGUUCC | 0.907
AGAACGAGUAAUUCUCACCCCAAGCAACAUCUAAUAGGGACUGAGUGACCCCAGCCCAGCCUAGUGUCACUUUAGGCCUGACGUUUGAGCAACCCUCGGCUCUUGCCAAG | 0.276
UGCAUUGAUUAAUGUUCACUUAUACAUUCCUGUACAGAAAUUAUGAUUUUUGUGAUUAUAGUAAUAAAAUGAUAUUACUUGUGAAAUAUUAGUAAUAAAUUAUUUGAGUA | 0.831
UGUGAUGGUAGUGACUUUAUGAGUUGUGAAUGGUCCUUGGCAGUCUGCCUGCUUUCUCAGAGUCUGGGCAGGCCGAUGGGAACUGUCAUCUCCUUAGGGAUGUGUGUGUU | 1.66
UAGUCUGAUUUUUUUCCUAAUAUUCUAGCAGGCUGGGGUGGUAUAAAGCCCUCCUGACAAGCCUUUUGCCUACAGGUUUACCUGAAAAUGAGCUACAUAUGGUCGUCAUU | 0.256
GAAUGACGAUUUUGAUUAGGCCACGUAGGGUGAAAACCGCAGAAAAAUGAUUGGAAAUGAACUCUUGCCCUGGAAUAACCUUGACAAUUCAAACCGCGAUGUUUACUUUU | 0.611
